# Results of several laboratories.
# Compare with care: the assays were run in different laboratories. “And” joins repeats or separate records; there may be more than shown. ± gives the spread as reported.
Substance,target or system,assay,test system,setting,how to read,measurement,value
gag CA CTD fragment (Rous sarcoma virus),itself,ITC,,,,Kd,110 ± 30 µM
"CapV apo, wild type (Acinetobacter baumannii)",itself,SEC,,,,subunits per oligomer,2
triosephosphate isomerase N11A/E65Q (Leishmania mexicana),itself,enzyme activity,,monomer-dimer equilibrium fit,,Ka,> 3e+12 M⁻¹
gag CA CTD fragment D155Y/R185W (Rous sarcoma virus),itself,ITC,,,,Kd,990 ± 280 µM
ACT1 fragment (Toxoplasma gondii),itself,single-filament epifluorescence microscopy,,pointed end,,critical concentration,91.9 µM and 84.3 µM and 44.3 µM
dye-decolorizing peroxidase (Klebsiella pneumoniae),itself,cryo-EM,,,,subunits per oligomer,6
gag CA CTD fragment F167Y (Rous sarcoma virus),itself,ITC,,,,Kd,> 1500 µM
cmeC (Campylobacter jejuni),itself,semi-native SDS-PAGE,,,,subunits per oligomer,3
OseR (Streptococcus suis),itself,non-reducing Western blot,lysate,"in vivo, not purified, together with: H2O2","relative to: untreated, higher = more dimer",dimer-to-monomer ratio,2.82 fold
insulin human,,item: CAMK1D mRNA,"uninfected mouse, brain","i.p., dose not given",relative to: PBS,fold change,1.3

# Repeated from above:
Substance,target or system,assay,test system,setting,how to read,measurement,value
triosephosphate isomerase N11A/E65Q (Leishmania mexicana),itself,enzyme activity,,monomer-dimer equilibrium fit,,Ka,> 3e+12 M⁻¹
